Assay results of several laboratories.
Lines come from different studies, so protocols differ. Numbers after ± are the reported error.

Compound	tested on	assay	system	setting	scale	endpoint	value
C[C@@H](Oc1ccc(S(C)(=O)=O)cc1C(=O)N1C[C@@H]2C[C@]2(c2cc(C(F)(F)F)on2)C1)C(F)(F)F			young humans, plasma	oral, 50 mg once daily, single dose, geometric mean		Vz/F	372 L
O=C(Nc1nc2cccc(-c3ccc(CN4CCS(=O)(=O)CC4)cc3)n2n1)C1CC1			rheumatoid arthritis patients	oral, 75 mg once daily, 4 weeks, TEAE regardless of relatedness		patients with upper abdominal pain	0%
CCC(C)n1ncn(-c2ccc(N3CCN(c4ccc(OCC5COC(Cn6cncn6)(c6ccc(Cl)cc6Cl)O5)cc4)CC3)cc2)c1=O (stereo not shown)		measured: throat irritation	healthy human participants	oral, 200 mg, compound alone cohort		adverse event incidence	7%
C=C(NC(=O)c1nccc(OC)c1O)C(=O)O[C@@H](C)[C@H](O)[C@@H](Cc1ccccc1)C(=O)O			lactating goat, female, kidney	oral, 21.3 mg/kg bw/day, 5 days		share of TRR	11 % TRR
O=C(O)COCCN1CCN([C@H](c2ccccc2)c2ccc(Cl)cc2)CC1	THP-1	pyroptotic LDH release		2 µM, 40 min, with: LPS then nigericin		inhibition	2.58%
CCCCCN1C[C@H](O)[C@@H](O)[C@H](O)[C@@H]1CO		LC-MS/MS	Hexb-/- mice, male, brain	300 mg/kg/day		mean brain concentration	296 ng/g
Cl.[2H]C([2H])([2H])CC(=O)c1cnc(NC(=O)C2CC2)cc1Nc1cccc(-c2ncn(C([2H])([2H])[2H])n2)c1OC			human, fasted, plasma	oral, 25 mg, single dose, liquid formulation		Cmax	272 ng/mL
CN[C@@H](C)C(=O)N[C@H]1CN(S(=O)(=O)c2cccc(S(=O)(=O)N3CC[C@H]4CC[C@@H](C(=O)NC(c5ccccc5)c5ccccc5)N4C(=O)[C@@H](NC(=O)[C@H](C)NC)C3)c2)CC[C@H]2CC[C@@H](C(=O)NC(c3ccccc3)c3ccccc3)N2C1=O		LC-MS/MS, noncompartmental	human, plasma	20 mg, cycle 1 day 1		median Tmax	30 min
N#CCc1ccccc1C#Cc1ccc(CCC(=O)O)cc1				1 µM, Cerep high-content toxicity		change in mitochondrial membrane potential	-5%
O=C(O)CCC(=O)O.[2H]C([2H])([2H])Oc1cc(C)c2[nH]ccc2c1CN1CC[C@@H](C2CC2)C[C@H]1c1ccc(C(=O)O)cc1		multiple ascending dose	healthy Chinese subjects	125 mg twice daily		subjects with elevated cholesterol TEAE	0%
CC[C@H](C)[C@H](NC(C)=O)C(=O)N[C@H]1CSSC[C@@H](C(=O)N[C@H](C(N)=O)[C@@H](C)O)NC(=O)[C@H](CCCNC(=N)N)NC(=O)[C@H](Cc2c[nH]cn2)NC(=O)[C@@](C)(CC)NC(=O)CNC(=O)[C@H](Cc2c[nH]c3ccccc23)NC(=O)[C@H](CC(=O)O)NC(=O)[C@H](CCC(N)=O)NC(=O)[C@H](Cc2c[nH]c3ccccc23)NC(=O)[C@H](C(C)C)NC1=O		isocratic RP-HPLC, C18	32% acetonitrile, phosphate pH 7.4, 1% TFA	25 °C		retention factor	1.31 ± 0.008
COc1cc2c(c(O)c1OC)C(=O)c1c(cc(C)c(O)c1OC)C2=O	HK-2 co-cultured with HepaRG	MTT		33.33 µM, 24 h	relative to: untreated control	cell viability	71.2 ± 7.31%
Nc1ncnc2c1ncn2[C@H]1C[C@H](O)[C@@H](COP(=O)(O)O)O1	THP-1	pyroptotic LDH release		2 µM, 40 min, with: LPS then nigericin		inhibition	-2.48%
COc1cc(C(=O)NC2CCN(C)CC2)c(F)cc1Nc1ncc(C(F)(F)F)c(Oc2cccc3c2C(=O)N(C)C3)n1			human patients, plasma	oral, 50 mg single dose, geometric mean		dose-normalised Cmax	6.24 nmol/L per mg
CCC(=O)N(CCC(c1ccc2c(c1)OCO2)c1ccccc1OC)Cc1ccccc1 (stereo not shown)			female athymic nude mouse, blood	i.p., 60 mg/kg twice daily, 14 days, group mean		TP	4.25 g/dL
C=CCN1CC(=O)N2[C@@H](Cc3ccc(O)cc3F)C(=O)N(Cc3cccc(N4CC(N5CCN(CC)CC5)C4)n3)C[C@@H]2N1C(=O)NCc1ccccc1			advanced solid tumour patients	oral, 15 mg twice daily, grade ≥3, dose-escalation		treatment-related ALT increased	0%
CCn1cc(C(=O)N2CCOCC2)c(=O)c2cc(NC3Cc4ccccc4C3)cnc21			human female, fed, plasma	oral, 900 mg twice daily, day 1, tablet, arithmetic mean		AUC(0-12h)	33100 ng·h/mL
O=C(N[C@H](Cc1c[nH]c2ccccc12)C(=O)Nc1ccncc1)c1ccc(-c2ccc(F)c(Cl)c2)cc1F			Swiss Webster mouse, female, muscle	oral, 50 mg/kg, 8 h, 20% Kolliphor vehicle		concentration	4.44 µM
COc1c(O)c(C)cc2c1C(=O)c1c(ccc(O)c1O)C2=O	HK-2 co-cultured with HepaRG	MTT		16.67 µM, 24 h	relative to: untreated control	viability	99.7 ± 11.7%
CO[C@H]1C[C@@H]2CC[C@@H](C)[C@@](O)(O2)C(=O)C(=O)N2CCCC[C@H]2C(=O)O[C@H]([C@H](C)C[C@@H]2CC[C@@H](OC(=O)NCCOCCOCCOCCOCCOCCOCCOCCOCCC(=O)N3CCc4cc(Cn5nc(-c6ccc7oc(N)nc7c6)c6c(N)ncnc65)ccc4C3)[C@H](OC)C2)C[C@@H](O)[C@H](C)/C=C(\C)[C@@H](O)[C@@H](OC)C(=O)[C@H](C)C[C@H](C)/C=C/C=C/C=C/1C			human patients, plasma	intravenous, 16 mg, cycle 1 day 15, weekly dosing		AUClast	1820 ng·h/mL
Cc1nn(CC(F)(F)F)cc1Nc1nccc(NCCCNC(=O)C2CCC2)n1		PAMPA	PBS	5 h, pH 7.4		effective permeability	2.39 ×10⁻⁶ cm/s
O=C(Nc1cnccc1Cl)N1CCN(Cc2ccc3c(c2)OC(F)(F)O3)CC1			healthy young women, plasma	oral, 100 mg once daily, day 1		AUC(0-24)	5740 ng·h/mL

Repeated from above:
Compound	tested on	assay	system	setting	scale	endpoint	value
Nc1ncnc2c1ncn2[C@H]1C[C@H](O)[C@@H](COP(=O)(O)O)O1	THP-1	pyroptotic LDH release		2 µM, 40 min, with: LPS then nigericin		inhibition	-2.48%
COc1cc(C(=O)NC2CCN(C)CC2)c(F)cc1Nc1ncc(C(F)(F)F)c(Oc2cccc3c2C(=O)N(C)C3)n1			human patients, plasma	oral, 50 mg single dose, geometric mean		dose-normalised Cmax	6.24 nmol/L per mg
